# Experimental data from different studies.
# Each numbered part is a random draw from the data of one study; scales do not carry over between parts.

# Study 1 — method: protein-binding microarray; molecule type: double-stranded DNA, one strand shown; sample: in vitro; tested at: 250 nM; setting: 60-bp whole probe; together with: salmon DNA 0.4 mg/ml; reference: random background probes; reading: higher = stronger binding
# Target: Interferon regulatory factor 7, full length, phosphomimetic (IRF7, Homo sapiens, UniProt Q92985, residues 1-503, S101K/S471D/S472D/S475D/S476D/S477D/S483D/S484D/S487D)
# Target sequence (chain): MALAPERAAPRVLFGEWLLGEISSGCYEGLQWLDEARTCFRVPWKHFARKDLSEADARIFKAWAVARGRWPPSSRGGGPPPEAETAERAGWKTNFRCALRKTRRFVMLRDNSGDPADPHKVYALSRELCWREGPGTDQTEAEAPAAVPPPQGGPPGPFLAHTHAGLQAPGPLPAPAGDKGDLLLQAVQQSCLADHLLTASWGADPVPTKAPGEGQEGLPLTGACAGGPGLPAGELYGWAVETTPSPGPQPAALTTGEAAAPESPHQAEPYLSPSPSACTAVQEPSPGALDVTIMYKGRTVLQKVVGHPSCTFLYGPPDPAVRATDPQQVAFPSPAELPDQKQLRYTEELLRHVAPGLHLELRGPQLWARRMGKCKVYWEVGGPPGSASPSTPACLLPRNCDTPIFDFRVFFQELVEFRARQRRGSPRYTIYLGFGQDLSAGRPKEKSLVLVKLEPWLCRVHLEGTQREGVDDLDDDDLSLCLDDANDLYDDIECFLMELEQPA
Oligonucleotide,log fluorescence [z-score]
GCCTAGCACAGAGCTTGTAGCCATCTTTGGTGCTAGGTCTTGATTCGCTTGACGCTGCTG,-0.827
GCCTAGCACTATTGTGCAATTAGAGCCCTGTGCTAGGTCTTGATTCGCTTGACGCTGCTG,-0.176
GCCTAGCACATGACTCTGCCTCTAACTGCGTGCTAGGTCTTGATTCGCTTGACGCTGCTG,0.104
GCCTAGCACGACGGACTGGGGTTTCGGGATGTGCTAGTCTTGATTCGCTTGACGCTGCTG,1.87

# Study 2 — method: universal PBM; molecule type: double-stranded DNA, one strand shown; sample: in vitro; tested at: 600 nM; reading: higher = stronger binding
# Target: Sal-like protein 4, full length isoform A (SALL4, Homo sapiens, UniProt Q9UJQ4, residues 1-1053)
# Chain of UniProt Q9UJQ4 (whole entry, looked up): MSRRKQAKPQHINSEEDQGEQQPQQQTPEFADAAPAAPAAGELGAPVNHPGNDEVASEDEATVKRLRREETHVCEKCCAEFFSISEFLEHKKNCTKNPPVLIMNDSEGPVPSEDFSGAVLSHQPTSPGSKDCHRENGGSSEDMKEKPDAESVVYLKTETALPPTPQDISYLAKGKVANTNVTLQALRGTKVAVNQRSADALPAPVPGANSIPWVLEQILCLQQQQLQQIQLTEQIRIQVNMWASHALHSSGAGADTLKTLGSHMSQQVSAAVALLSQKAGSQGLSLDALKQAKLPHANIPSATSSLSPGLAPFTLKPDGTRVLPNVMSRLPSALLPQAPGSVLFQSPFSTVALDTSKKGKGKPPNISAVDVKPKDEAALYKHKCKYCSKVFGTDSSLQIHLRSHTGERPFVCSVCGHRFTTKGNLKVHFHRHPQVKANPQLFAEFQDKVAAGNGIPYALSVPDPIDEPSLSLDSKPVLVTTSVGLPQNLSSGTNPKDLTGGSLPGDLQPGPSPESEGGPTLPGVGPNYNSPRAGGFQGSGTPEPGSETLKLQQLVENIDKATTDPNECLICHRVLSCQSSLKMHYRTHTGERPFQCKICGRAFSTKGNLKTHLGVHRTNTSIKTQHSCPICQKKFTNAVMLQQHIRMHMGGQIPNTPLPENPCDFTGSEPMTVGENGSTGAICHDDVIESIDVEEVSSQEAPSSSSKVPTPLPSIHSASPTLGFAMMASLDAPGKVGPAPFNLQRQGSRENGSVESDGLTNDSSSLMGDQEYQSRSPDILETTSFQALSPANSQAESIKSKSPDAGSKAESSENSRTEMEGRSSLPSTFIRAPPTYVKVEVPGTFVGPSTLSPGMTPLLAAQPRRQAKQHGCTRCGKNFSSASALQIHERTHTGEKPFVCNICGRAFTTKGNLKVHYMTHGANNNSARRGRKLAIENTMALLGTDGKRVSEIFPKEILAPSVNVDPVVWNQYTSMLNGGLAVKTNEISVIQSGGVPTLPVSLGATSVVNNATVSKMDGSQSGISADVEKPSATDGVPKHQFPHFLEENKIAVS
# Setting: 8-mer, flanks averaged, mean of replicates
Oligonucleotide,E-score
CACAGAAC,0.0114
ATCCTCGG,-0.247
AACAACAT,0.203
TGGGCACA,-0.187

# Study 3 — method: RNA Bind-n-Seq; molecule type: RNA; sample: in vitro; tested at: 365 nM; reference: no-protein control; reading: higher = stronger binding
# Target: RNA binding protein fox-1 homolog 2, RRM domain, GST-SBP tag (RBFOX2, Homo sapiens, UniProt O43251-10, residues 100-194)
# Setting: natural RNA segment, single round, ends assumed
Oligonucleotide,RBNS enrichment (R)
GGGAGUUCUACAGUCCGACGAUCAAUGAACAUAGCCAGUUCCUACCCAACCCUGCCCUGCCUUUUUUUUUUUUUUUAAAGUGUGGUCCUGUGCUUUCAAAGUAAGUACAGUUCUCUAUGACCAGGCACUUAAAUGGAAUUCUCGGGUGCCAA,1.23
GGGAGUUCUACAGUCCGACGAUCAGCCCCACAGCCUGAGCCUCCCAGCUGCCAUGUGCCUGUUGCACACCUGCACACACGCCCUGGCACACAUACACACAUGCGUGCAGGCUUGUGCAGACACUCAGGGAUGGUGGAAUUCUCGGGUGCCAA,0.578
GGGAGUUCUACAGUCCGACGAUCCCCGCUGUCAGUCUGUGUCCUCCACGUGCUUAUUUCCUGUGGUGAGAGCAGUUGUGGUGUUUGUAUACCUUGUGCCUUAUGAUCAAGGUGGGCCUUGGAGGAGGGCGGGAUGGAAUUCUCGGGUGCCAA,1.39

# Other studies, line by line
Substance,target,test,system,conditions,how to read,endpoint,result
"PhoQ, residues 284 288 289 292 302 303 SSTLSG","PhoP, residues 12 14 15 18 19 GQAIL (Escherichia coli, UniProt P23836)","Sort-seq, measured: YFP reporter",E. coli,"PhoQ-PhoP variant library, together with: 10 µM Mg2+","reference: high Mg2+ state, higher = stronger signaling",fold induction,8.47

# Some of these lines once more (other studies, line by line):
Substance,target,test,system,conditions,how to read,endpoint,result
"PhoQ, residues 284 288 289 292 302 303 SSTLSG","PhoP, residues 12 14 15 18 19 GQAIL (Escherichia coli, UniProt P23836)","Sort-seq, measured: YFP reporter",E. coli,"PhoQ-PhoP variant library, together with: 10 µM Mg2+","reference: high Mg2+ state, higher = stronger signaling",fold induction,8.47
